Results gathered from unrelated publications.
Every numbered part comes from another study and shows a few of its results, in no order. Substitutions count along the parent as printed.

Sample 1
Target: RNA binding protein fox-1 homolog 2, RRM domain, GST-SBP tag (RBFOX2, Homo sapiens, UniProt O43251-10, residues 100-194)
Technique: RNA Bind-n-Seq
Form: RNA
Matrix: in vitro
Tested at: 365 nM
Setting: natural RNA segment, single round, ends assumed
Relative to: no-protein control
Direction: higher = stronger binding
All sequences stand within: GGGAGUUCUACAGUCCGACGAUC … UGGAAUUCUCGGGUGCCAA
For `GGAAGGGCAUUCAGGGCCCCUGGGCACCGCUUCUGUUGAAGCAGGGGCUUCUGGGCCCCUGGGUAUCCCCACCUGUCGUGGCCACACCUCUGCCUGCCUCAUGCCCCUUC`, “RBNS enrichment (R)” read 0.577.
`CAGGAGGCUGCGUGACAUGGGCCACUCUAGGACAGGUCAUCCUCCCCGAGUCCCUGCUGCUGCGCUCCUUUGCAUCCCUGGCCAGUGACCUUGUAUUUAUGAGGCCUCUG`: “RBNS enrichment (R)” 0.855.
`UGCCCUCACGGGGGAGUGUUCCUGUGUGGCUCCUGCUCCUGCUGUGUGUCGGGCUUAUUAUUGUGACCAUCCUGCUGCUCCAGAGUGCCUUUCCAGGUUUCCUUUAGCUU`: “RBNS enrichment (R)” 0.366.
`GGGAAUAAAAGUCAGAGCCUUACACAUGUCCAGCAAAAACUAUGGUUGGGAUACACCUAUUAUCCCCUAAAAACAUACAAAUAAUGCAAAAGGAUGAUGGAGCUUCCUGG`: “RBNS enrichment (R)” 0.392.
For `CUCUGUGUGUGCGAGCACGCGUGUCUGUGUUUGUGUGUGCAUAGUUCUGUGGUUUUAGACACGCUUUCUUGUAGUGCUUCUGCAAAAAACAAAAAAGGGACUUAUUUUGC`, “RBNS enrichment (R)” read 2.08.
`UAGGUUCAGAACAGUAUUCUCAGUACAAGCUUCGCUUUUCUAAGAAGUACACAUUUGGCCCAAAUUCACCGGGAUAAGUGAGAACAGCCAGAAGCAUAAAAUGUGAUGAA` — result for “RBNS enrichment (R)”: 0.795.
`GCACCGCUUCCUGGUCUAUUUGCAGAGGUGGUACCCCUCGCUGCCUCCAGGAGAGAGCGCUCCAGGUACUCUACCGACUGAGACAGGUCCCAAGCCCUAACAGGCCUUCA` — result for “RBNS enrichment (R)”: 0.421.
Under “RBNS enrichment (R)”, `CAGACAGCAAAUGAUUCCGGAUCUCUAAAAGGCUCUCUCAGAUGAAAAGGGAGUAAAGGAAAAAAGAGGUCAACCACUGUUUCUGAUAAUGUACUUGAGUUUCAUUGUUC` is recorded as 0.514.

Sample 2
Target: Histone acetyltransferase KAT6A, winged helix 1, GST fusion (KAT6A, Homo sapiens, UniProt Q92794, residues 1-85)
Technique: protein binding microarray
Form: double-stranded DNA, one strand shown
Matrix: in vitro
Tested at: not given
Setting: 8-mer, flanks averaged, mean of 2 arrays, mostly near background
Relative to: not given
Direction: higher = stronger binding
Target sequence (chain): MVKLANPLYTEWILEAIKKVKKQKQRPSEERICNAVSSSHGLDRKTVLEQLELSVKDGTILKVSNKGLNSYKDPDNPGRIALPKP
For `CGGCGGGC`, the E-score was 0.46.
For `CCACTCAA`, the E-score was -0.256.
With `AGTAGGTA` the E-score was -0.13.
`AGGTCCTA` has an E-score of -0.16.
With `ACTGTGTA` the E-score was -0.0253.
`TTGTCAAA` has an E-score of -0.161.
`GATGATAA` gave an E-score of -0.0561.
`TGCCATAA` gave an E-score of -0.0995.
`TAGCGGAA` has an E-score of 0.174.
The E-score of `GGCTTCGA` is reported as 0.111.
`CCCTGGGC` has an E-score of -0.106.
With `CCGTCCAC` the E-score was 0.208.
`ATGAGTCA` has an E-score of -0.191.
`ATCCAAAG` gave an E-score of -0.234.
`CAGGTCAG` gave an E-score of -0.194.
For `CTCCGTCA`, the E-score was 0.0257.
`CATGCGAC` gave an E-score of 0.135.
`ACACTTAG` gave an E-score of -0.16.
`AAGCCCTC` gave an E-score of -0.06.
`GATAAGGC` gave an E-score of 0.0168.
For `CACGCGCA`, the E-score was 0.404.
`GTATACGA` has an E-score of -0.102.
The E-score of `CGGACAAG` is reported as 0.202.
`CTAAACGC` gave an E-score of 0.191.
For `ACCGGTCG`, the E-score was 0.219.

Sample 3
Target: Interferon regulatory factor 5, full length, phosphomimetic (IRF5, Homo sapiens, UniProt Q13568-2, residues 1-514, K96S/S451D/S453D/S456D/S462D)
Technique: protein-binding microarray
Form: double-stranded DNA, one strand shown
Matrix: in vitro
Tested at: 250 nM
Setting: 60-bp whole probe
Added: salmon DNA 0.4 mg/ml
Relative to: random background probes
Direction: higher = stronger binding
All sequences stand within: GCCTAGCAC … GTCTTGATTCGCTTGACGCTGCTG
For `TAAGGTTTCCTTTTCCTTTAGTGCTAG`, the log fluorescence was 1.28 z-score.
`CTAGGTATCGACTTTCGGTTAGTGCTA` gave a log fluorescence of 10.1 z-score.
`TTAGGTTTCGGGACTGGGTTCGTGCTA` has a log fluorescence of 5.87 z-score.
`GACGGTATCGGTCTCGCGACGTGCTAG` has a log fluorescence of 5.27 z-score.
`GACGGACTGGGTTTCGGAACGTGCTAG` has a log fluorescence of 2.7 z-score.
For `GACGCTTTCGGGTATCGGGACGTGCTA`, the log fluorescence was 8.88 z-score.
`TTAGGTCTTCTACTGCTTTAGTGCTAG` gave a log fluorescence of 0.0569 z-score.
For `TTAGATTCCAGTTTCGATGAGTGCTAG`, the log fluorescence was 8.81 z-score.
`GACGGGCTCCTACTGCTGACGTGCTAG` gave a log fluorescence of -0.526 z-score.
`TCATTTTTACTTCGGGTACTGTGCTAG` has a log fluorescence of 0.868 z-score.
The log fluorescence of `CACGGACTGGGGACTGGGGACGTGCTA` is reported as -0.879 z-score.
For `CAAACACTAATTTTCAATTCGTGCTAG`, the log fluorescence was 1.03 z-score.
The log fluorescence of `TCAATTTTTACTTTCTGACTGTGCTAG` is reported as 3.04 z-score.
`TTAGGTATCGGGACTGGGATAGTGCTA` has a log fluorescence of 1.96 z-score.
`TCACACATCTCACTCTAACTGTGCTAG` gave a log fluorescence of 0.455 z-score.
For `TTAGATCTCAGTCTCGACTAGTGCTAG`, the log fluorescence was 0.252 z-score.
For `GACGATATCAGAGTGGAGACGTGCTAG`, the log fluorescence was 0.232 z-score.
The log fluorescence of `TTAGGACTGGACTATCGGATAGTGCTA` is reported as 1.34 z-score.
The log fluorescence of `TTAGGTATCCTTTTCCATTAGTGCTAG` is reported as 0.602 z-score.

Further values, each from its own experiment
Parent: E2F1 docking peptide (human); PPVKRRLDLETDH; partner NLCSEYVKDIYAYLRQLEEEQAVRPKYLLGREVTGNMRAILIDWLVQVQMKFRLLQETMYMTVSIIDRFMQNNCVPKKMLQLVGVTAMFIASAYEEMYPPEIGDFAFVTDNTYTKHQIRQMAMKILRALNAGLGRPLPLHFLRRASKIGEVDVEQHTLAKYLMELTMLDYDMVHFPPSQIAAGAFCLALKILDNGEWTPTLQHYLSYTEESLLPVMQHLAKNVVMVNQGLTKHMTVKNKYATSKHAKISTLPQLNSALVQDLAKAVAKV
`PPVKKRLDLETDH [R5K]`: “normalised enrichment score” 0.0421 (CCNB1, cyclin fold, Cln2 fusion (human); yeast growth competition, sequencing; yeast; strong parent motif; relative to: not given, higher = stronger binding).
